Measured values collected from several papers.
Parts stem from different laboratories: compare values within a part only.

Set 1
Target: Sal-like protein 4, full length isoform B (SALL4, Homo sapiens, UniProt Q9UJQ4-2, residues 1-616)
Method: universal PBM
Form: double-stranded DNA, one strand shown
Medium: in vitro
Concentration: not given
Setting: 8-mer, flanks averaged, mean of replicates
Reading: higher = stronger binding
Measurement: E-score
GAAAGATA: 0.231
CAGCGGTC: -0.3
GCCCCCGA: -0.184
GGATCGCA: -0.119

Set 2
Target: Histone acetyltransferase KAT6A, winged helix 2, GST fusion (KAT6A, Homo sapiens, UniProt Q92794, residues 85-181)
Method: protein binding microarray
Form: double-stranded DNA, one strand shown
Medium: in vitro
Concentration: not given
Setting: 8-mer, flanks averaged, mean of 2 arrays, mostly near background
Baseline: not given
Reading: higher = stronger binding
Measurement: E-score
Construct (chain): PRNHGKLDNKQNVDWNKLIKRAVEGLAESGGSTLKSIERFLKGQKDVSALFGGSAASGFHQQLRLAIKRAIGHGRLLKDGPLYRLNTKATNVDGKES
CCGCCTTC: 0.0913
CGCTTAGC: 0.157
GTGCCCCA: 0.11
GGTTGCTA: 0.0503

Set 3
Target: Centromere-binding protein 1, full length, His-tagged (CBF1, Saccharomyces cerevisiae, UniProt P17106, residues 1-351)
Sequence of UniProt P17106 (whole entry, looked up): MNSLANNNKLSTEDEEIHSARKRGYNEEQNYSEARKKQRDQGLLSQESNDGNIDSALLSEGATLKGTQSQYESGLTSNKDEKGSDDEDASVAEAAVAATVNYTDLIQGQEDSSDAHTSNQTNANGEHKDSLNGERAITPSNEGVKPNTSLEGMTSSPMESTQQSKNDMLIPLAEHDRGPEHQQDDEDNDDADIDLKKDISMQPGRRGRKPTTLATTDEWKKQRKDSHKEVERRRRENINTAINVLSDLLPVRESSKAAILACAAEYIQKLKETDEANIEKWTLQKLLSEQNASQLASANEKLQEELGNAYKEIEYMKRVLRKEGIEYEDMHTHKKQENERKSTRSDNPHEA
Method: competition protein-binding microarray
Form: double-stranded DNA, one strand shown
Medium: in vitro
Concentration: 2 µM
Setting: whole 60-bp probe, lowest competitor level
Added: Pho4 competitor, 0.05 µM
Reading: higher = stronger binding
Measurement: fluorescence intensity
Shared flanks, not repeated: … GTCTTGATTCGCTTGACGCTGCTG
TTCTGCCCTTAATCGCACGTGCCAGAAGACCTGTAC: 1770 a.u.
AAAAGAGAATTTCCTGGCGTGCAAATCTCTGCAGAT: 68.7 a.u.
ATTACCCGTCTCCGTCACGTGAAGTAAAAATTTCCA: 3700 a.u.
GAAGGAGCGGGGCGTCATGCTAACCAGGAATGGAAG: 64.2 a.u.
GGCAACCAAGTAAACTGCGTGGGTATCTTCAAGTCG: 59.1 a.u.
GGGATTCCTCTCTGGCGTGTGATGTCTGTATCTGTT: 79.5 a.u.

Single results of other studies
PhoQ, residues 284 288 289 292 302 303 AAQSYM  fold induction (PhoP, residues 12 14 15 18 19 SQCLL (Escherichia coli, UniProt P23836); Sort-seq, measured: YFP reporter; E. coli; PhoQ-PhoP variant library, added: 10 µM Mg2+; baseline: high Mg2+ state, higher = stronger signaling): 11.5
